# Measurements from different studies.
# Each line is one published result; not all experiments were run side by side. Values joined by “and” are separate records of one study, mostly repeats; a detail may differ. Numbers after ± are the reported error.
SMILES,tested on,assay,test system,setting,scale,endpoint,value
CC[C@H](C)[C@H](NC(=O)CN)C(=O)N[C@@H](CCCCN)C(=O)N[C@@H](CCCCN)C(=O)N[C@@H](Cc1ccccc1)C(=O)N[C@@H](CC(C)C)C(=O)N[C@@H](CCCCN)C(=O)N[C@@H](CO)C(=O)N[C@@H](C)C(=O)N[C@@H](CCCCN)C(=O)N[C@@H](CCCCN)C(=O)N[C@@]1(C)CCCC=CCCC[C@@](C)(C(=O)N[C@@H](CCCCN)C(N)=O)NC(=O)[C@H](C)NC(=O)[C@H](CCCCN)NC(=O)[C@H](C(C)C)NC1=O,,UPLC,TFA water/acetonitrile gradient,,longer = more hydrophobic,retention time,2.09 min
O=C1NCCc2nc(OCc3cccc(F)c3)ccc21,,measured: tail erection,Sprague-Dawley rat male,"oral, 100 mg/kg, 30 min",direction not given,Irwin test score,0
Cc1c(C(=O)O)ccc2c3n(nc12)[C@@H]1[C@H](C3)N(CC2CC2)[C@@]2(C(=O)Nc3cc(Cl)ccc32)[C@H]1c1cccc(Cl)c1F,,,"Chbb:Beagle dog, male, plasma",intravenous,,mean residence time,2.4 h
CC[C@@H]1CN(C(=O)NCC(F)(F)F)C[C@@H]1c1cnc2cnc3[nH]ccc3n12,,population PK model,"healthy, RA and CD subjects, plasma","oral, immediate-release formulation",reference: females over males,Vc/F ratio,0.748
NC(=O)c1cnc2[nH]ccc2c1N[C@@H]1[C@@H]2CC3C[C@H]1C[C@@](O)(C3)C2,,,"healthy human volunteers, plasma","oral, dose not given, population PK model, bootstrap median",,central volume,253 L
CCc1cc(C(=O)NC)c2nccc(N3CCc4c(cc(Cn5ccnc5)cc4-c4cn(C)nc4C(F)(F)F)C3=O)c2c1,,,Sprague Dawley rat,"oral, 50 mg/kg once daily, 7 days",,brain weight,1.81 ± 0.072 g
O=C(Nc1nc2cccc(-c3ccc(CN4CCS(=O)(=O)CC4)cc3)n2n1)C1CC1,,,rheumatoid arthritis patients,"oral, 100 mg twice daily, 4 weeks, TEAE regardless of relatedness",,patients with Hypotension,0%
CCO[C@H]1CCN(Cc2c(OC)cc(C)c3[nH]ccc23)[C@H](c2ccc(C(=O)O)cc2)C1,,,"human mild hepatic impairment, plasma","oral, 200 mg single dose, geometric mean",,total AUC(0-t),52200 ng·h/mL
Cc1cc(O)c2c(c1)C(=O)c1cccc(O)c1C2=O,HK-2 co-cultured with HepaRG,MTT,,"33.33 µM, 24 h",reference: untreated control,viability,95 ± 8.55%
COc1cc2c3c(n(CCCN4CCOCC4)c(=O)c2cc1OC)-c1cc2c(cc1C3=O)OCO2,,,"beagle dog, female, plasma","intravenous infusion, 430 mg/m^2, 1 h infusion",,Vz,568 L/m² and 954 L/m²
CCn1c(=O)c(-c2cc(NC(=O)Nc3ccccc3)c(F)cc2Br)cc2cnc(NC)cc21,,measured: nervous system disorders,"human, moderate hepatic impairment","oral, 50 mg single dose",,participants with drug-related TEAE,0%
O=C(O)CCC(=O)O.[2H]C([2H])([2H])Oc1cc(C)c2[nH]ccc2c1CN1CC[C@@H](C2CC2)C[C@H]1c1ccc(C(=O)O)cc1,,,healthy Chinese subjects,"400 mg, single ascending dose",,subjects with any TEAE,50%
CNCc1ccc(-c2[nH]c3cc(F)cc4c3c2CCNC4=O)cc1,,,patients,"oral, 360 mg twice daily, all grades",,abdominal pain incidence,25%
Cc1ccc([C@@H]2O[C@H](CO)[C@@H](O)[C@H](O)[C@H]2O)cc1Cc1ccc(-c2ccc(F)cc2)s1,,,"human, maintenance hemodialysis patients","oral, 100 mg once daily, steady state, mean",,trough concentration,151 µg/L
Cc1cc(O)c2c(c1)C(=O)c1cc(O)cc(O)c1C2=O,HK-2 co-cultured with HepaRG,MTT,,"16.67 µM, 24 h",reference: untreated control,viability,95.9 ± 8.77%
CCCC1CCC(C2CCC(c3cc(F)c(F)c(F)c3)CC2)CC1 (stereo not shown),,,"rat, fetus","1000 ng/mL in perfusate, middle dose, mixture of 21 LCMs",,fetal accumulation,0.249 ± 0.672 ng/g
OC[C@H]1O[C@@H](c2ccc(Cl)c(Cc3ccc(O[C@H]4CCOC4)cc3)c2)[C@H](O)[C@@H](O)[C@@H]1O,,,"Japanese type 1 diabetes patients, blood","10 mg, day 28",reference: baseline,change in Phosphate,0.1 mg/dL
CC(=O)N[C@@H](CC(N)=O)C(=O)N[C@@H](CC(N)=O)C(=O)N[C@@H](CC(C)C)C(=O)N[C@H]1CSSC[C@@H](C(=O)N[C@H](C(N)=O)[C@@H](C)O)NC(=O)[C@H](CCCNC(=N)N)NC(=O)[C@H](Cc2c[nH]cn2)NC(=O)[C@H](Cc2cccc3ccccc23)NC(=O)CNC(=O)[C@H](Cc2c[nH]c3ccccc23)NC(=O)[C@H](CC(=O)O)NC(=O)[C@H](CCC(N)=O)NC(=O)[C@H](Cc2cccc3ccccc23)NC(=O)[C@H](C(C)C)NC1=O,,"isocratic RP-HPLC, C18","32% acetonitrile, phosphate pH 7.4, 1% TFA",25 °C,,retention factor,5.899 ± 0.004
C=CC(=O)Nc1cc(Nc2nccc(-c3cn(C)c4ccccc34)n2)c(OC)cc1N(C)CCN(C)C,,storage stability,human plasma,"2 h, -80 °C, MQC level",,recovery,101%

# Repeated from above:
SMILES,tested on,assay,test system,setting,scale,endpoint,value
Cc1cc(O)c2c(c1)C(=O)c1cc(O)cc(O)c1C2=O,HK-2 co-cultured with HepaRG,MTT,,"16.67 µM, 24 h",reference: untreated control,viability,95.9 ± 8.77%
CCCC1CCC(C2CCC(c3cc(F)c(F)c(F)c3)CC2)CC1 (stereo not shown),,,"rat, fetus","1000 ng/mL in perfusate, middle dose, mixture of 21 LCMs",,fetal accumulation,0.249 ± 0.672 ng/g
